{"data": "Measurements from different studies", "target": "Testis-specific serine/threonine-protein kinase 1 (TSSK1B, Homo sapiens, UniProt Q9BXA7)", "note": "Protocols differ between the studies behind these lines. “And” joins repeats or separate records; there may be more than shown."}
{"Compound": "CN1CCN(Cc2ccc(-c3ccc(CO[C@H]4CCC[C@@H]4NC(=O)c4cc(-c5cnn(C)c5)cnc4N)cc3)cc2)CC1", "assay": "enzyme activity, inhibitor", "setting": "0.1 µM", "quantity": "inhibition", "value": "14%"}
{"Compound": "C=C1CCCCCCCCCC(CO)C1=O (centres unmarked)", "assay": "cell-free assay, competition with immobilised ligand", "setting": "10 µM", "quantity": "remaining binding", "value": "98%"}
{"Compound": "CCN1CCN(Cc2ccc(NC(=O)c3ccc(C)c(NC(=O)c4cncc(-c5cnn(C)c5)c4)c3)cc2C(F)(F)F)CC1", "assay": "binding, competition with immobilised ligand", "setting": "1 µM", "quantity": "remaining binding", "value": "91%"}
{"Compound": "CNC(=O)C1CCN(c2cc(C)c(F)cc2NC(=O)c2ccc(-c3cc(O)ccc3C)c(C)c2)CC1", "assay": "binding, competition with immobilised ligand", "setting": "1 µM", "quantity": "remaining binding", "value": "90%"}
{"Compound": "NC(=O)[C@@H](O)C[C@H]1CCc2sc3ncnc(O[C@H]4CC[C@H](N5CCOCC5)CC4)c3c21", "assay": "enzyme activity, inhibitor", "setting": "10 µM", "quantity": "inhibition", "value": "-3%"}
{"Compound": "CC(=O)N1c2ccc(-c3ccc(CNC(=O)c4cn5cc(-c6cnc(N)nc6)nc(N6CCOCC6)c5n4)cc3)cc2CC[C@@H]1C", "assay": "KINOMEscan", "setting": "10 µM", "quantity": "remaining binding", "value": "96%"}
{"Compound": "C=CC(=O)N1CCCC(n2c(=O)c3ncccc3n(Cc3ccc(Oc4ccccc4)cc3)c2=O)C1 (centres unmarked)", "assay": "cell-free assay, competition with immobilised ligand", "setting": "1 µM", "quantity": "remaining binding", "value": "95%"}
{"Compound": "COCC12C(=O)NC3C4(C(OC)CC1O)C1CC5(O)C(OC)C(O)C(OC(C)=O)(C1C5OC(=O)c1ccccc1)C3(O)C(OC)C24 (centres unmarked)", "assay": "kinase activity, inhibitor, ProQinase kinase profiling", "setting": "25 µM", "scale": "baseline: control", "quantity": "remaining activity", "value": "69% and 96%"}
{"Compound": "C=CC(=O)N1Cc2nc(-c3cc(-c4cc(Cl)cnc4Cl)c(F)cc3F)n(-c3ccncn3)c2C1", "assay": "cell-free assay, inhibitor", "setting": "1 µM", "quantity": "inhibition", "value": "10.3%"}
{"Compound": "O=C=[N][Ru-4]123([n]4c5ccc(O)cc5c5c6c(c7cc(F)c[n+]1c7c54)C(=O)NC6=O)[S+]1CC[S+]2CC[S+]3CC1 (centres unmarked)", "assay": "enzyme activity", "setting": "100 nM, human enzyme, together with: 10 µM ATP", "scale": "baseline: untreated", "quantity": "remaining activity", "value": "50%"}
{"Compound": "CN1CCN(Cc2ccc(NC(=O)c3cccc(C#Cc4cnc(N)c5ncccc45)c3)cc2C(F)(F)F)CC1", "assay": "cell-free assay, competition with immobilised ligand", "setting": "0.5 µM", "quantity": "remaining binding", "value": "81%"}
{"Compound": "COc1ccc(O)cc1-c1c[nH]c2ncc(-c3cncc(C(=O)N(C)C)c3)cc12", "assay": "binding, competition with immobilised ligand", "setting": "0.2 µM", "quantity": "inhibition", "value": "-9.41%"}
{"Compound": "CCn1cc(C(=O)O)c(=O)c2c(N)c(F)c(NC3CCCCC3)cc21", "assay": "kinase activity", "setting": "0.1 µM, together with: ATP at Km", "quantity": "inhibition", "value": "1.7%"}
{"Compound": "COc1ccc(NC(=O)Nc2ccc3c(c2)C(=O)N(C(C)CO)CC(C)C(CN(C)Cc2ccc4c(c2)OCO4)O3)cc1 (centres unmarked)", "assay": "binding, competition with immobilised ligand", "setting": "10 µM", "quantity": "remaining binding", "value": "57%"}
{"Compound": "COc1cc(Nc2nc(C)cc(-c3cnn4nc(OC)ccc34)n2)cc(C(F)(F)F)c1", "assay": "binding, competition with immobilised ligand", "setting": "1 µM", "quantity": "remaining binding", "value": "100%"}
{"Compound": "Cc1cccc(O[C@H]2CCC[C@@H](C(C)CNCc3ccncc3)C2)c1 (relative stereo)", "assay": "enzyme activity, inhibitor", "setting": "1 µM", "quantity": "inhibition", "value": "-5%"}
{"Compound": "C=CC(=O)N1CCc2ccc(-n3c(=O)ccc4cnc5ccc(-c6cnn(C)c6)cc5c43)cc21", "assay": "KINOMEscan", "setting": "1 µM", "scale": "baseline: DMSO control", "quantity": "remaining binding", "value": "96%"}
{"Compound": "CN1CC[C@@H](COc2cnc(C#N)cc2-c2ccn3nc(NC(=O)C4CC4)cc3c2)C1", "assay": "enzyme activity, inhibitor", "setting": "1 µM", "quantity": "inhibition", "value": "3%"}
{"Compound": "C=CC(=O)Nc1cccc(-c2cnc3[nH]cc(C(=O)NC(C)(C)C)c3n2)c1", "assay": "kinase activity", "setting": "0.1 µM", "quantity": "inhibition", "value": "15% and 14%"}
{"Compound": "COc1cc(-n2cc3cc(F)cc(C(N)=O)c3n2)cc(Cl)c1C1CC(O)(CCO)Cc2ccccc21 (centres unmarked)", "assay": "enzyme activity, inhibitor", "setting": "10 µM", "quantity": "inhibition", "value": "0.53%"}
{"note": "For quick reference, copied from above:"}
{"Compound": "C=CC(=O)Nc1cccc(-c2cnc3[nH]cc(C(=O)NC(C)(C)C)c3n2)c1", "assay": "kinase activity", "setting": "0.1 µM", "quantity": "inhibition", "value": "15% and 14%"}
{"Compound": "CNC(=O)C1CCN(c2cc(C)c(F)cc2NC(=O)c2ccc(-c3cc(O)ccc3C)c(C)c2)CC1", "assay": "binding, competition with immobilised ligand", "setting": "1 µM", "quantity": "remaining binding", "value": "90%"}
